Measurements pooled from the literature.
Compare with care: the assays were run in different laboratories. ± marks the error that the study gave.
GLP1R: Glucagon-like peptide 1 receptor (GLP1R, Homo sapiens, UniProt P43220)
Chain of UniProt Q9Y6W6 (whole entry, looked up): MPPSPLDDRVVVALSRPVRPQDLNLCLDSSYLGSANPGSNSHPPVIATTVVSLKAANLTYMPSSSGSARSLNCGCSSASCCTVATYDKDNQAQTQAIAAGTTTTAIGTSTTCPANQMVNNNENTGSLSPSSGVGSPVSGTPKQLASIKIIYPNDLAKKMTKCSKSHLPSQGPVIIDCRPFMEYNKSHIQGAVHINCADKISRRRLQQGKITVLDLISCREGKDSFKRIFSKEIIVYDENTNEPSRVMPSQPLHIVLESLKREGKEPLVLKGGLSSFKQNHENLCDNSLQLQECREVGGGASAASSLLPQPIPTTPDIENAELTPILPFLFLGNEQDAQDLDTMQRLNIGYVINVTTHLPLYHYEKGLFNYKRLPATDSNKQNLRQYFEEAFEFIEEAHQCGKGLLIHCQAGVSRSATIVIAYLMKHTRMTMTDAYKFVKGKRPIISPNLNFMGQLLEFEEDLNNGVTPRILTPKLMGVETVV
Chain of UniProt Q62645 (whole entry, looked up): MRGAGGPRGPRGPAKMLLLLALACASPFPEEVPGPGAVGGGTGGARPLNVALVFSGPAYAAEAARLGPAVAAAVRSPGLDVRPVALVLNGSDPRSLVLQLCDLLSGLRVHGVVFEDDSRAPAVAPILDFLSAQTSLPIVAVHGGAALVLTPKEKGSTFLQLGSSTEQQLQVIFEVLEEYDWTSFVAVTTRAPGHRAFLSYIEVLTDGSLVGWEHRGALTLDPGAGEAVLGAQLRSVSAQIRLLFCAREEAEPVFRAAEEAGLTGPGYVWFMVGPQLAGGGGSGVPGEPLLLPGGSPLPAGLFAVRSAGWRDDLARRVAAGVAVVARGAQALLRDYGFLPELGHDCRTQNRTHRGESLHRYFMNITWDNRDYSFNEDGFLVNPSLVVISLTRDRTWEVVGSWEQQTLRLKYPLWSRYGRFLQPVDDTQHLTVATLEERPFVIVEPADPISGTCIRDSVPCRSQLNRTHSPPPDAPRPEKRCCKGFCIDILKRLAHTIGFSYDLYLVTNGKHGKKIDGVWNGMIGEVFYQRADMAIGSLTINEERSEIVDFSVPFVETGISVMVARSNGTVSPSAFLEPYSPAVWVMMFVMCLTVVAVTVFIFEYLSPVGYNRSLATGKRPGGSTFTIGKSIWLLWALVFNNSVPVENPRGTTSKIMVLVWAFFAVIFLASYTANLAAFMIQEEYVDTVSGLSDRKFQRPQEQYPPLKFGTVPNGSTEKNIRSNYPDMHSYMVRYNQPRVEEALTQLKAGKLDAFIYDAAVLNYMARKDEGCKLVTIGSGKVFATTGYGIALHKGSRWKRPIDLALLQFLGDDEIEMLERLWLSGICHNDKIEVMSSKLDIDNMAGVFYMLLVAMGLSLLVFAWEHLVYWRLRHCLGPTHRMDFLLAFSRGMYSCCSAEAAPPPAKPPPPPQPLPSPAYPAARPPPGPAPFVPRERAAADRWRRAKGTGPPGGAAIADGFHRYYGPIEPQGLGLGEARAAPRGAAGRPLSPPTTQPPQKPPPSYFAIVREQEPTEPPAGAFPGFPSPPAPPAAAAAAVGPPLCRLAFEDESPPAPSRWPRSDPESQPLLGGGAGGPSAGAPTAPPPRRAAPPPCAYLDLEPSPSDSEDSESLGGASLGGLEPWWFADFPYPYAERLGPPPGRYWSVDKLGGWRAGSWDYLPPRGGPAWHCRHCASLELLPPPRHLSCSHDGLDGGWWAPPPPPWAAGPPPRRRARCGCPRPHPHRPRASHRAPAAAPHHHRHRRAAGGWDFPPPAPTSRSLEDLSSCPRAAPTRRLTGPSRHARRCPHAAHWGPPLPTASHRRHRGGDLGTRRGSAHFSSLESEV
Chain of UniProt P08172 (whole entry, looked up): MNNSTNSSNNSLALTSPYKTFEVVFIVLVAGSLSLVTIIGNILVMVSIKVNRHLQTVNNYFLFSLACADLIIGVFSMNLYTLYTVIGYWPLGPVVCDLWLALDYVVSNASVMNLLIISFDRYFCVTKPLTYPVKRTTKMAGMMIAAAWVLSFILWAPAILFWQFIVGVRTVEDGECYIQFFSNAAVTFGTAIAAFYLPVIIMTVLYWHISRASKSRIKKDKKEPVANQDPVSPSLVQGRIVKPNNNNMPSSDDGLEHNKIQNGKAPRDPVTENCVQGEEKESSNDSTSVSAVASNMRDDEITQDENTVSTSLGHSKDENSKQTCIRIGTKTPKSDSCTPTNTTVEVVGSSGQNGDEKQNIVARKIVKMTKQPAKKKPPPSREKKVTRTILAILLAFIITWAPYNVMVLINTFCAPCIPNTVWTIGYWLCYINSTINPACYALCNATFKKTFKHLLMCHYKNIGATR
Chain of UniProt Q704Y3 (whole entry, unmodified, looked up): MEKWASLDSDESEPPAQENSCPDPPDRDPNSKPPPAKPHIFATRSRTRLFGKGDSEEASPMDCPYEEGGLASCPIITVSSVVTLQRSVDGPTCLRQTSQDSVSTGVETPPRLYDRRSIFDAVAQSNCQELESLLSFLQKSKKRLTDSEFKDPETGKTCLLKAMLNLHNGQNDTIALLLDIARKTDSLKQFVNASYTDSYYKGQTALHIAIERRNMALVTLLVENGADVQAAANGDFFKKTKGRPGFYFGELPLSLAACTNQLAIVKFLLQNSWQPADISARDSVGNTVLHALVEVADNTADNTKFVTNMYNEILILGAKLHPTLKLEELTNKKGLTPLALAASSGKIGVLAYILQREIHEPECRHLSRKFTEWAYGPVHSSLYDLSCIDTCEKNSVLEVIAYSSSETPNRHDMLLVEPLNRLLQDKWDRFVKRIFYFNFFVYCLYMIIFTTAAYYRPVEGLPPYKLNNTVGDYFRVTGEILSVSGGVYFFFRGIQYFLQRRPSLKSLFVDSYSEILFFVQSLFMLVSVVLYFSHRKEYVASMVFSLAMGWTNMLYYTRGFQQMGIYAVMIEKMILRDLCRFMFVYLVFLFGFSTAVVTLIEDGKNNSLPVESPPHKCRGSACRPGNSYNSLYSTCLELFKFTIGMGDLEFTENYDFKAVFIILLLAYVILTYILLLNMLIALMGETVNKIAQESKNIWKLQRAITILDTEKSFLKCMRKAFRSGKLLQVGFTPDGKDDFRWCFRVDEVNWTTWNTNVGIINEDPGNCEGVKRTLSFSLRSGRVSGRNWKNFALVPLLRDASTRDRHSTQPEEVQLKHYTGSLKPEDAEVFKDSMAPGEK
Chain of UniProt P08908 (whole entry, looked up): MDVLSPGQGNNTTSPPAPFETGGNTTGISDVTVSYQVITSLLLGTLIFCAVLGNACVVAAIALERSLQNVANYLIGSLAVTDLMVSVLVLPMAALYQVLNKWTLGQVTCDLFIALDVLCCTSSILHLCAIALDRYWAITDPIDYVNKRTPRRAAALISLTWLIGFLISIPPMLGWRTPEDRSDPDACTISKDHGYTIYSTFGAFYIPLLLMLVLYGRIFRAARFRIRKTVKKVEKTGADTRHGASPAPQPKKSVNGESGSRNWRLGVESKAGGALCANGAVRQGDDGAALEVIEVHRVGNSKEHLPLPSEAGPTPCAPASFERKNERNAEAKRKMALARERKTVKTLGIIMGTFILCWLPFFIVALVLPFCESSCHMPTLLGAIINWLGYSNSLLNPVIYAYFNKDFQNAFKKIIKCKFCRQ

CC[C@H](C)[C@@H]1NC(=O)[C@@H]2CCCN2C(=O)[C@H](CC(C)C)NC(=O)[C@H](CC(C)C)NC(=O)CNC(=O)[C@@H](NC(=O)[C@@H](NC(=O)[C@H](CC(=O)O)NC(=O)CNC(=O)[C@@H](NC(=O)[C@H](C)NC(=O)CNC(=O)[C@H](CCCCN)NC(=O)[C@H](CC(C)C)NC(=O)[C@H](CC(C)C)NC(=O)[C@H](CCCCN)NC(=O)CNC(=O)[C@@H](NC(=O)[C@@H](N)CC(C)C)C(C)C)C(C)C)C(C)C)CSSC[C@@H](C(=O)O)NC1=O: “log2 fold change” -4.61 (RNA-seq, refers to: Ighv8-8 mRNA; mouse traumatic brain injury, frontal cortex and hippocampus; dose not given; relative to: TBI plus compound vs TBI).
COc1c(O)cc2oc3cc(O)c(CC=C(C)C)c(O)c3c(=O)c2c1CC=C(C)C gave an EC50 of 19.9 µM (Cyclin-dependent kinase 2, with cyclin E1 (CDK2, Homo sapiens, UniProt P24941); kinase activity, inhibitor).
With CCCCC/C=C\C/C=C\C/C=C\C/C=C\CCCC(=O)NCCO the EC50 was 4.01 ± 0.51 µM (Transient receptor potential cation channel subfamily V member 1 (Trpv1, Mus musculus, UniProt Q704Y3, Y512F); ion current, agonist, whole-cell patch clamp; 24 °C, Y512F, +80 mV).
For COc1cc(Nc2ncc(F)c(Nc3ccc4c(n3)NC(=O)C(C)(C)O4)n2)cc(OC)c1OC, the IC50 was > 10 µM (Dual specificity protein phosphatase 10 (Homo sapiens, UniProt Q9Y6W6); MKP-5).
COc1cccc(-c2ccc([C@@H]3[C@@H](CO)N4CCCCN(C(=O)Cc5ccncc5)C[C@@H]34)cc2)c1 has an EC50 of 14.7 µM (Insulin-degrading enzyme (IDE, Homo sapiens, UniProt P14735); enzyme activity, inhibitor, fluorogenic kinetic; together with: Mca-RPPGFSAFK(Dnp)-OH substrate).
Cc1cc(N2CCNCC2)nc2ccccc12 gave an EC50 of > 20 µM (Muscarinic acetylcholine receptor M2 (CHRM2, Homo sapiens, UniProt P08172); ERK1/2 phosphorylation, agonist; CHO cells).
C[C@H]1CN(c2n[nH]c3nc(N[C@H]4CC[C@H](NS(=O)(=O)CCC(F)(F)F)CC4)ncc23)CCO1 gave a remaining binding of 1.19 (14-3-3 protein epsilon (Homo sapiens, UniProt P62258); Kinobeads competition, refers to: YWHAE; 0.8 µM, unit not given; relative to: vehicle).
With C[C@H](N)Cn1ncc2ccc3c(c21)CCCO3 the EC50 was 15 µM (5-hydroxytryptamine receptor 1A (HTR1A, Homo sapiens, UniProt P08908); agonist, refers to: cAMP; CHO; together with: forskolin).
CC[C@H](C)[C@H](NC(=O)[C@H](Cc1ccccc1)NC(=O)[C@H](CC(=O)O)NC(=O)[C@H](CCCNC(=N)N)NC(=O)[C@@H](NC(=O)[C@H](C)NC(=O)[C@H](CC(C)C)NC(=O)[C@H](CC(N)=O)NC(=O)[C@H](CC(=O)O)NC(=O)[C@H](CC(C)C)NC(=O)[C@@H](NC(=O)[C@@H](NC(=O)[C@H](CO)NC(=O)[C@H](CCSC)NC(=O)[C@H](CCC(=O)O)NC(=O)[C@H](CC(=O)O)NC(=O)[C@H](CO)NC(=O)[C@H](Cc1ccccc1)NC(=O)[C@H](CO)NC(=O)CNC(=O)[C@H](CC(=O)O)NC(=O)[C@H](C)NC(=O)[C@@H](N)Cc1c[nH]cn1)[C@@H](C)O)[C@@H](C)CC)[C@@H](C)O)C(=O)N[C@@H](CC(N)=O)C(=O)N[C@@H](Cc1c[nH]c2ccccc12)C(=O)N[C@@H](CC(C)C)C(=O)N[C@H](C(=O)N[C@@H](CCC(N)=O)C(=O)N[C@H](C(=O)N[C@@H](CCCCN)C(=O)N[C@H](C(=O)N[C@H](C(=O)N[C@@H](CC(=O)O)C(=O)O)[C@@H](C)O)[C@@H](C)CC)[C@@H](C)O)[C@@H](C)CC has an EC50 of 0.044 µM (GLP1R; reporter gene, agonist, CRE-luciferase; HEK-293T).
CC[C@H](C)[C@H](NC(=O)[C@H](Cc1ccccc1)NC(=O)[C@H](CCC(=O)O)NC(=O)[C@H](CCCNC(=N)N)NC(=O)[C@H](C)NC(=O)[C@H](C)NC(=O)[C@H](CCC(N)=O)NC(=O)[C@H](CCC(=O)O)NC(=O)[C@H](CCC(=O)O)NC(=O)[C@H](CC(C)C)NC(=O)[C@H](Cc1ccc(O)cc1)NC(=O)[C@H](CO)NC(=O)[C@H](CO)NC(=O)[C@@H](NC(=O)[C@H](CC(=O)O)NC(=O)[C@H](CO)NC(=O)[C@@H](NC(=O)[C@H](Cc1ccccc1)NC(=O)[C@@H](NC(=O)CNC(=O)[C@H](CCC(=O)O)NC(=O)[C@H](C)NC(=O)CCc1cnc[nH]1)[C@@H](C)O)[C@@H](C)O)C(C)C)C(=O)N[C@@H](C)C(=O)N[C@@H](Cc1c[nH]c2ccccc12)C(=O)N[C@@H](CC(C)C)C(=O)N[C@H](C(=O)N[C@@H](CCCCNC(=O)COCCOCCNC(=O)COCCOCCNC(=O)CC[C@H](NC(=O)CCCCCCCCCCCCCCCCC(=O)O)C(=O)O)C(=O)NCC(=O)N[C@@H](CCCNC(=N)N)C(=O)N[C@@H](CCCCNc1c(NCCCCCN(O)C(=O)CCC(=O)NCCCCCN(O)C(=O)CCC(=O)NCCCCCN(O)C(C)=O)c(=O)c1=O)C(=O)NCC(=O)NCC(=O)N[C@@H](CO)C(=O)N[C@@H](CCCCNc1c(NCCCCCN(O)C(=O)CCC(=O)NCCCCCN(O)C(=O)CCC(=O)NCCCCCN(O)C(C)=O)c(=O)c1=O)C(=O)O)C(C)C has an EC50 of 7.4e-06 µM (GLP1R; cAMP reporter gene, agonist, CRE luciferase; BHK; without Zr, 0% HSA).
For C#Cc1sc2ncn(CC(=O)N3CC(C)(F)C3)c(=O)c2c1-c1ccc(F)c(Br)c1, the EC50 was 0.66 ± 0.15 µM (Grin1/Grin2b/Glutamate receptor ionotropic, NMDA 2D (Rattus norvegicus, UniProt P35439+Q00960+Q62645); ion current, potentiator, two-electrode voltage clamp; Xenopus oocytes).
COc1cc2c(Oc3ccc4[nH]c(C)cc4c3F)ccnc2cc1OCC1(N)CC1 — result for “incidence of adverse event”: 0% (refers to: grade 3 abdominal pain; paediatric high-risk refractory sarcoma; 8 mg).
For CC[C@H](C)[C@H](NC(=O)[C@H](Cc1ccccc1)NC(=O)[C@H](CCC(=O)O)NC(=O)[C@H](CCCNC(=N)N)NC(=O)[C@H](C)NC(=O)[C@H](C)NC(=O)[C@H](CCC(N)=O)NC(=O)[C@H](CCCCNc1c(NCCCCCN(O)C(=O)CCC(=O)NCCCCCN(O)C(=O)CCC(=O)NCCCCCN(O)C(C)=O)c(=O)c1=O)NC(=O)[C@H](CCC(=O)O)NC(=O)[C@H](CC(C)C)NC(=O)[C@H](Cc1ccc(O)cc1)NC(=O)[C@H](CO)NC(=O)[C@H](CO)NC(=O)[C@@H](NC(=O)[C@H](CC(=O)O)NC(=O)[C@H](CO)NC(=O)[C@@H](NC(=O)[C@H](Cc1ccccc1)NC(=O)[C@@H](NC(=O)CNC(=O)[C@H](CCC(=O)O)NC(=O)[C@H](C)NC(=O)CCc1cnc[nH]1)[C@@H](C)O)[C@@H](C)O)C(C)C)C(=O)N[C@@H](C)C(=O)N[C@@H](Cc1c[nH]c2ccccc12)C(=O)N[C@@H](CC(C)C)C(=O)N[C@H](C(=O)N[C@@H](CCCCNc1c(NCCCCCN(O)C(=O)CCC(=O)NCCCCCN(O)C(=O)CCC(=O)NCCCCCN(O)C(C)=O)c(=O)c1=O)C(=O)NCC(=O)N[C@@H](CCCNC(=N)N)C(=O)N[C@@H](CCCCNC(=O)COCCOCCNC(=O)COCCOCCNC(=O)CC[C@H](NC(=O)CCCCCCCCCCCCCCCCC(=O)O)C(=O)O)C(=O)O)C(C)C, the EC50 was 0.00022 µM (GLP1R; cAMP reporter gene, agonist, CRE luciferase; BHK; with Zr, 1% HSA).

A few entries again:
CC[C@H](C)[C@@H]1NC(=O)[C@@H]2CCCN2C(=O)[C@H](CC(C)C)NC(=O)[C@H](CC(C)C)NC(=O)CNC(=O)[C@@H](NC(=O)[C@@H](NC(=O)[C@H](CC(=O)O)NC(=O)CNC(=O)[C@@H](NC(=O)[C@H](C)NC(=O)CNC(=O)[C@H](CCCCN)NC(=O)[C@H](CC(C)C)NC(=O)[C@H](CC(C)C)NC(=O)[C@H](CCCCN)NC(=O)CNC(=O)[C@@H](NC(=O)[C@@H](N)CC(C)C)C(C)C)C(C)C)C(C)C)CSSC[C@@H](C(=O)O)NC1=O: “log2 fold change” -4.61 (RNA-seq, refers to: Ighv8-8 mRNA; mouse traumatic brain injury, frontal cortex and hippocampus; dose not given; relative to: TBI plus compound vs TBI).
